Measurements pooled from the literature.
Numbered parts are unrelated; each lists some results of a single study.

Study 1
Target: RNA binding protein fox-1 homolog 2, RRM domain, GST-SBP tag (RBFOX2, Homo sapiens, UniProt O43251-10, residues 100-194)
Technique: RNA Bind-n-Seq
Molecule type: RNA
Medium: in vitro
Concentration: 365 nM
Notes: natural RNA segment, single round, ends assumed
Reference: no-protein control
Direction: higher = stronger binding
Shared flanks, not repeated: GGGAGUUCUACAGUCCGACGAUC … UGGAAUUCUCGGGUGCCAA
Residues (chain): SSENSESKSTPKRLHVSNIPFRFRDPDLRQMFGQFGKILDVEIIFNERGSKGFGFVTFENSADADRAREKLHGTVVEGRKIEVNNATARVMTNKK
Sequence	RBNS enrichment (R)
AAUAACAAACAUUGUCCUCUCCAGAAAGUCCUUUCUUUCUCCAUACUGUAGUCCUAUUGAGAAGACAUUUCGUCUCUGAGAAAAAAGGAUGGAACUAUGGGUUCUCUUCG	0.351
UCUUGCAUAGUUAGAAUUAAGCGUUUGUCCAUCUCUAGAUAACAUUGAAAAGUUUGAGUGUUACAGGCUCUAAAGUGCAAUGGAGAACAAUUGCUUAGGAGGAGGAAGGG	0.748
ACCACUCACGGCCCAAAUCUUCUUGAUCAUAUGUUUAAAUAUAUUUUUUAAUAUUUGGAGCAUGAGUUGUCACUUCUUGUUUGCCUUUUUUAUAAGGAAAUGUUGGAGAG	0.454
UUUUAUUUUUCUACUUUGAAUUGUAUACAUUUGGAAAGUACCCAAAUAAAUGAGAAGCUUCUAUCCUGAUUUGGGGAAGACAUUCCUUAGCGGAGGCUGUGCAGCCUCCC	0.382
AAUAGGAAUUGAUAAUAGCAGUCUUAAACAUUAGUAGUGGGAUUUGGCUAUGGUCCAGACUGUGCUCCUUAUAGAGAAUUUGAUCUGCUCAGUGUGAGCGGUUUGCUGUU	3.31
CUGUCAUGUAAUCAGCUAAUUCUCUGUGGAUGUUGCUGUAAAGUAUGCAUGUUCCUUUCAUGUGUAUUUAAUCAUGAUGUUUAAUUUUGCACACUUAUUUGUAAUGUUUC	0.536
CACUCUGCUCAAGAGACGGAUGCACUCCUGCGCCCCGGUCUUCGGCCUGGACCCCACACGUUCAUAGUCUGUCCAGACACUGGGUGGCGGUCCUAAUGCACAGUGACCAA	0.284
AGUGGGGGCCCCUCAUCUAGAUCAUGAUAUGCCAGUUUCCAAGACAUCUUCUGAAGGCCCUCACUGCCUCAAGCCCUCUCCCCUCCUCGCAGGGCAGGCUUGGUGCACUG	0.792
AUUCCUAUGGAGCAGUGGUGUUCCAAAUUCUCCAUUACCUCUAUGCCUAAUAUUCAUCAGCCUUCAUUACUCUCUAGCAUAUUCACCUUGAUUCAACAGAUUCAAACUUC	0.355
UUCACUGCCAGAGUGGGCAUCUUGCAUAGUAAGGGAUUCCAGAUUAGAUAUGAGUUGAGCACCCUGCCUUUCUUCCUAUCACCCCGCUUCUGCUGAUAGUCCGUGCUACA	1.35
AUCCGCCCCUUAGAGCCCUCUGGCUAGAGGAGCCACCAGUGGAAAGGAAGACCCUCCAUCCUCUGGUAUUAACGCCUUAAUGCCCCUGUCUUUUACUGUAAGUUACUUAA	0.271
GGGGCGGAUUGAGAAGAAUCUUCCGUAGCCUGAGCUGUCCCUCCUGUUUUGACGGCACAUGUGCCAGUCAAGGGACAUGGGACAGUCGCGCCACUUUGCAUUCCCACGGG	0.305

Study 2
Target: Hepatocyte nuclear factor 3-alpha (Foxa1, Mus musculus, UniProt P35582, residues 1-468, full length assumed)
Technique: EMSA with sequencing
Molecule type: double-stranded DNA, one strand shown
Medium: in vitro
Concentration: 10 and 20 nM
Notes: whole designed probe, mean of two concentrations, ends assumed
Reference: negative control set to 0
Direction: higher = stronger binding
Shared flanks, not repeated: GTGAGCGGTGCCCATTGATGGGGAAC … TTTCACTGGGATCGTGGGGAC
Residues (chain): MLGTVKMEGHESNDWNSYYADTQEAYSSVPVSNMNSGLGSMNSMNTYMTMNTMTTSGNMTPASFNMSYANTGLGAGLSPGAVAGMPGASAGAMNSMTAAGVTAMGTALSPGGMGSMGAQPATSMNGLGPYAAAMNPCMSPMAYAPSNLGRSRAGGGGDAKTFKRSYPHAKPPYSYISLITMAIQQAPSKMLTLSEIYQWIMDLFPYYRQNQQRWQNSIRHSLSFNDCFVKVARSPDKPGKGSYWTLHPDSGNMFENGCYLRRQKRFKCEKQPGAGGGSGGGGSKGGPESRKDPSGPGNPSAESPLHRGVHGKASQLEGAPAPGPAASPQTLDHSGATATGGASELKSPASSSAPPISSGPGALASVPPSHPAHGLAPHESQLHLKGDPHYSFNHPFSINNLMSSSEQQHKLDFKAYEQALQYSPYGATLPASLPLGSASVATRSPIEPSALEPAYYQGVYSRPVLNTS
Sequence	normalised bound fraction
TGTATCCATCTGGGCAGTATCTTCTCTGGGCCTGGCCTGTCATAGGTGCTTCAGGTTTCCCCATTTGAACCAGATACCAGTCGGGTTACCGGATGTTTGCTTAAAATGGGCTTCCTGCTAGTCATAATTCCTGTGCTGCTTCCAGCTAGGACTGATCGAATCAGTCTGGATTTTCCTTGGGGTGATCCGCAGG	0.142 ratio
CCCACCCCACCCTGGCCACGATGACGCAAACAGAAAACCTCAGTGCTTACAGATCCCGATCTCCCACGGTCACCAATGCTCTAGAGAGGTAAATATTTACACAGGAGCCTCTAAAGCTCATAACTCAGAGGGGAGATGCTCCCCCTGCCGCCTAGGGGCTGTAAACATTTGTTCCTGCAAGCCCTGCAGCAGA	0.415 ratio
GTCAAAAAAATATATATATGGTAAATTTGAAGAATGGTTAAAGAAGTGGGTGAACAGCCTTGGCATTTTCTCAACACTATATTTTTTTTGGTTGTTTACTTTGTTTTTTCTTGTAATTAAGTAATAATAAAAAGTTCAATAACAACAGCTCACTTTTTTGAAGAATGGTTAAAGAAGTGGGTGAGCAGCCTTG	0.359 ratio
CTTTATTAGTTACATGAGTTGGGCAAAACCTTTTGGAATAGTACCAGTGTCACCAAGACAACAGGATGGTTATAGAAAGGCAGAAAAACAATGTAATCTAACATTTTATAAGCATAAATAATAATAGTTATTCTTCTATATACATTCAGTGTCTCTAAGCAGATCCAAAGATTTGCCAAGTTTTAATGAGATG	0.00832 ratio
TTTATGCTTTGTTTGAATAACAAGAATGGAGGAGATAAGGGGAACAACTGTACTTCCTAATGGTTAGTCCACAAAAAGCCATTAGCATTCACTGTAATCTGCATTCATCAATGTGCTGTCTTAGGTCAGGATCAACTTCCTTATCTAAACTTGAGAAGGGACTGCCCTTTTTTCTCTATCTCACTTATAATAC	0.236 ratio
TTTGCTTTTCTCTCTCAAAGTATAATATGCTTGTTGAAACTTCAAACTTAAATGGGAGAGAAAAATTCTCTGAAAATATTTTGCCATTTTTCCTTGTTTACACAAAGAGAGGTGGATGTTTACATGTTTGATTCACATACACATGTAAAGCTGGTACTTTCGGTTAAAACTTTCTAGAACATAGCAATCAGGG	0.399 ratio
ATCTTCCCCCTCTTCCTTGCCCCACCAGCTCACCTTCCCGGGTTATTTGCAGATAGGAAAATAAATAAAGCCGGCATTCGTTAACCCTCTTCACGCGCATACTGCTGTTTGCTCTGGATCTAACGATGAATCATGGCGACGCCAGGCTCCGGGAGAGCAAAGCACCGTGTCAGGGCCATGATCCGGGGTGGCC	0.359 ratio
ATCTTCCCCCTCTTCCTTGCCCCACCAGCTCACCTACGGGGGTTATTTGCACAAAGGAAAATAAATAAAGCCGGCATTCGTTAACCCTCTTCACGCGCATACTGCTGTTTGCTCTGCATGAATCATGGTCCTTACGCGACGCCAGGCTCCGGGAGAGCAAAGCACCGTGTCAGGCGCATGATCCGGGGTGGCC	0.387 ratio

Study 3
Target: Interferon regulatory factor 7, full length, phosphomimetic (IRF7, Homo sapiens, UniProt Q92985, residues 1-503, S471D/S472D/S475D/S476D/S477D/S483D/S484D/S487D)
UniProt Q92985, sequence (whole entry, unmodified, looked up): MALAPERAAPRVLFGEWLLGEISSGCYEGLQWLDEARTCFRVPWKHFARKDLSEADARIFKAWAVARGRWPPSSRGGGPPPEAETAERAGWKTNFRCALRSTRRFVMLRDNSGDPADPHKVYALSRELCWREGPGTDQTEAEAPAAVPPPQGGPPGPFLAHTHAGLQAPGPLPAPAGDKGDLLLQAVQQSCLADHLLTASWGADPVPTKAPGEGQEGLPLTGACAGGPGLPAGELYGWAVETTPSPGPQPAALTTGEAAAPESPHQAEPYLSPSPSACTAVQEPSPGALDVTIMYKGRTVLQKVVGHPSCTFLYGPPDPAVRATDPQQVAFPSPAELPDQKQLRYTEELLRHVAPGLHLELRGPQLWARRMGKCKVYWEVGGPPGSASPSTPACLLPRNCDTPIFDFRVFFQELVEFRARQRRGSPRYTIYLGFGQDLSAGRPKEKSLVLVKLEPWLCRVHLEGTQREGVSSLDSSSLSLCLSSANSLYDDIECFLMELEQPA
Technique: protein-binding microarray
Molecule type: double-stranded DNA, one strand shown
Medium: in vitro
Concentration: 2200 nM top
Notes: 60-bp whole probe
With: salmon DNA 0.4 mg/ml
Reference: random background probes
Direction: higher = stronger binding
Shared flanks, not repeated: GCCTAGCAC … GTCTTGATTCGCTTGACGCTGCTG
Sequence	fitted relative affinity [z-score]
TCACATATGTTTTTCATACTGTGCTAG	1.84
CTCTTTTTGCTTTCTTTTATGTGCTAG	3.44
TCACCTTTTCTTTACTGACTGTGCTAG	2.29
TCATATCTGGGTTCCCCACTGTGCTAG	0.805
TTAGAACTGAGTAGCGATTAGTGCTAG	-0.746
GGAGGGGGGCGGGGCGGTGGGTGCTAG	1.79
GACGATCTCAGTTTTGAGACGTGCTAG	0.53
GGCGGTATCGACTATCGGGACGTGCTA	-0.586
TTAGGGTTCCTTTCCCTTTAGTGCTAG	2.67
GACGGTTTCGGTATCGGGCCGTGCTAG	7.82
TCATGTTTTTCATTATTACTGTGCTAG	2.07
TCAGTACTTTCTATCTCACTGTGCTAG	3.75
TCACATTTTTTTATCAAACTGTGCTAG	1.07
AGTTTTTCATTTTTTTTCATGTGCTAG	2.27
GACGGTCTCAGACTGGGGACGTGCTAG	-0.53
GACGGTTTCCTTTACCTGACGTGCTAG	2.46
TTAGTTATCGGGACTGGATTAGTGCTA	0.158
TTAGGTCTTGGTATCGGTTAGTGCTAG	0.549
TTAGGTGCCCTTTTCCTTTAGTGCTAG	1.16
CCATTTTTCTAGTCCAGACTGTGCTAG	2.42

Study 4
Target: Histone acetyltransferase KAT6A, both winged helices, GST fusion (KAT6A, Homo sapiens, UniProt Q92794, residues 1-181)
Technique: protein binding microarray
Molecule type: double-stranded DNA, one strand shown
Medium: in vitro
Concentration: not given
Notes: 8-mer, flanks averaged, mean of 2 arrays, mostly near background
Reference: not given
Direction: higher = stronger binding
Residues (chain): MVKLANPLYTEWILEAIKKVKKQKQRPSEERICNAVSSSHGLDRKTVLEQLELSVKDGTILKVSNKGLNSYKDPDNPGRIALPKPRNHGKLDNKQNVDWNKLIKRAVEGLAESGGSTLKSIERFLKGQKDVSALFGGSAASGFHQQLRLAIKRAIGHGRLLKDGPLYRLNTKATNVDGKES
Sequence	E-score
GCTACACA	0.078
GGCAGGCA	-0.12
AAAACGCT	0.101
CGACTACC	-0.0289
ACGTAGCG	0.118
AGTTTTAA	-0.0554
CAGGTTTA	-0.0558
CGGCCCAG	0.0905
TCCAAACA	-0.141
TACCCGTA	0.244
AATGACTA	-0.189
TCCCGCGA	0.314
ACTGCGGA	0.243
CACCGTAC	0.182
AGTTGAGC	-0.18
CAAGGGAA	-0.233
CCCTACAG	-0.15
CCTTGTAG	-0.0583
AATGGTTG	-0.0141
CTTAGCTC	-0.109
CGTTGTCA	-0.0285
ATTTTATG	-5e-05
ACCCAGTC	-0.159
AGCGGATC	0.18
ACAGACCG	0.112

Repeated from above (study 4):
Sequence	E-score
TACCCGTA	0.244
AATGACTA	-0.189
TCCCGCGA	0.314
ACTGCGGA	0.243
CACCGTAC	0.182
AGTTGAGC	-0.18
CAAGGGAA	-0.233
CCCTACAG	-0.15
CCTTGTAG	-0.0583
AATGGTTG	-0.0141
